Assay results gathered from unrelated publications.
Every numbered part comes from another study and shows a few of its results, in no order.
Sequence of UniProt Q5BJF2 (whole entry, looked up): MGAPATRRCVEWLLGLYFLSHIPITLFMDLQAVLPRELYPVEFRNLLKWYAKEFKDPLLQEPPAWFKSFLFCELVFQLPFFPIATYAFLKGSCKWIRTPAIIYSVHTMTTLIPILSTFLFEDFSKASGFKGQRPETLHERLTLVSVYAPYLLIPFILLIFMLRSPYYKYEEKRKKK

Block 1
Species: human
Matrix: microsomes or S9
Tested at: 2 µM
Time: 0.5 h
| SMILES | remaining compound |
| --- | --- |
| CCOc1cc(=O)n2c(c1C(=O)Nc1cc(Cl)ccc1OC)CCCC2 | 27.5% |
| O=c1c2sc3nc(N4CCOCC4)c4c(c3c2ncn1CCc1ccccc1)CCCC4 | 12.7% |
| CC(C)(C)NC(=O)Cn1nc2c(-c3nc(-c4cccc(F)c4)no3)cccn2c1=O | > 100% |
| CCOC(=O)C1=C(n2[nH]c3nc(C)cc(COC)c3c2=N)CCC1 | 84% |
| O=C1CN(C2CCCC2)C(=O)N1Cc1cc2c(cc1Br)OCO2 | > 100% |
| Nc1cccc(-c2c3c(=O)[nH][nH]c(=O)c3c3n2CCC3)c1 | > 99% |
| Cc1ccccc1CS(=O)(=O)c1ncc(CN(CCN(C)C)C(=O)NC(C)C)n1CC(C)C | 0.117% |
| CCOC(=O)N1CCN(C(=O)C2CCC(CNS(=O)(=O)CC)CC2)CC1 (stereo not drawn) | 70.7% |
| Cc1oc(-c2ccccc2)nc1CNC1(c2ccccc2)CCOCC1 | 0.477% |
| CCn1ccc(C(=O)Nc2cccn3ncnc23)n1 | 12.4% |
| CC(=O)c1ccc(Nc2nc3ccc(C)cc3n3cnnc23)cc1 | 70.5% |
| CC(C)CCn1cnc2c(cnn2-c2ccc(Cl)cc2)c1=O | 35.8% |
| Cn1c(C(=O)Nc2cnn(C(C)(C)C(=O)O)c2)cccc1=O | > 100% |
| Cc1cccc(C)c1NS(=O)(=O)c1c(C)nc(O)nc1O | 51.1% |
| Cc1cc(C)n(-c2nc3cc(Cl)c(Cl)cc3nc2NCc2ccncc2)n1 | 102% |
| O=C(O)c1nc2nc(C3CC3)cc(C(F)(F)F)n2n1 | 85.2% |
| Cn1cc(C2NC(N)=Nc3nc4ccccc4n32)c2cc(F)ccc21 (stereo not drawn) | > 99.9% |
| CC1(C)CON(Cc2cc(-c3ccccc3)sc2Cl)C1=O | 36.5% |
| CCC(C)n1c(=O)c2sccc2n2c(CCCC(=O)N3CCc4ccccc4C3)nnc12 (stereo not drawn) | 5.67% |
| O=C(c1scc2c1OCCO2)N1CCCC(Cn2ccnc2)C1 (stereo not drawn) | 89.3% |
| CC1CCC(c2c[nH]c3ccc(Cl)cc23)C(=O)C1 (stereo not drawn) | 13.3% |
| c1ccc(-c2ncc(-c3nc4ccncc4[nH]3)s2)nc1 | 88.7% |
| CCC(CC)CN(CC(=O)OC)S(=O)(=O)c1ccc(S(C)(=O)=O)cc1 | 87% |
| CCc1ccc(S(=O)(=O)[C@H]2CS(=O)(=O)C[C@@H]2N(C)CCc2ccncc2)cc1 | 0.319% |

Block 2
Cell line: mouse MPNST tumor cells
Method: high-content immunofluorescence imaging
Measured: nuclear SOX9
Tested at: 10 µM
Time: 12 h
Setting: mean of 2 replicates
Baseline: DMSO control
Reading: higher = more nuclear SOX9
| SMILES | nuclear SOX9 intensity |
| --- | --- |
| Nc1nc(-c2nn(Cc3ccccc3F)c3ncccc23)ncc1C1CC1 | 114 % of DMSO |
| N#Cc1ccc(-c2ccc(S(=O)(=O)Nc3cccc(N)n3)cc2)cc1 | 105 % of DMSO |
| CC1C(=O)OC2C(O)C34C5CC(C(C)(C)C)C36C(OC(=O)C6O)OC4(C(=O)O5)C12O (stereo not drawn) | 103 % of DMSO |
| C1CCC(N=C(NC23CC4CC(CC(C4)C2)C3)N2CCOCC2)CC1 | 103 % of DMSO |

Block 3
Target: Centromere-binding protein 1, full length, N-terminal tag (CBF1, Saccharomyces cerevisiae, UniProt P17106, residues 1-351)
Sequence of UniProt P17106 (whole entry, looked up): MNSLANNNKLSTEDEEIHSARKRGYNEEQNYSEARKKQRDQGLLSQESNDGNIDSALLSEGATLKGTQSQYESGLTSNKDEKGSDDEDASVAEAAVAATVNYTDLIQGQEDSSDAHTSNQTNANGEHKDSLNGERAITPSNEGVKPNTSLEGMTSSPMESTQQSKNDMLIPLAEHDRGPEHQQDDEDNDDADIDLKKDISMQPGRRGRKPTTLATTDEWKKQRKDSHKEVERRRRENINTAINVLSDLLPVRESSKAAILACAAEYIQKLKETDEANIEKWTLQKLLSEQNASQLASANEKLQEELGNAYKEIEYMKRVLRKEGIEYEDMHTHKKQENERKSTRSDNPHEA
Method: protein-binding microarray
Molecule type: double-stranded DNA, one strand shown
Matrix: in vitro
Tested at: 0.8 µM
Setting: whole 60-bp probe, no competitor
Reading: higher = stronger binding
| Strand | fluorescence intensity [a.u.] |
| --- | --- |
| CTATCGAACATTTCTACCACTAATCACACCAGGTTCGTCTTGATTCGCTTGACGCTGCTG | 534 |
| CCTAACTACTATAAACATCAGCGATAGCTTCGTACAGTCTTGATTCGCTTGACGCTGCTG | 517 |
| GAATTCGCTCTTTATCACCACGCTTTTCCTCTCTAGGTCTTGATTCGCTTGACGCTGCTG | 535 |
| CTAACTCCCCCTTACCACGACTACAAAGAGCTATTCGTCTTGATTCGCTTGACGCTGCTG | 518 |
| CTAACACTGCGCCTTTTCGTGATGATGCATTTGTTCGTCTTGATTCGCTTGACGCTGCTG | 544 |
| CTACTTTTTTTTTCTTGCGTGATCCTGCACTATTTCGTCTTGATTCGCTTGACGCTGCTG | 622 |
| CTAACTTATTTTCATCACGAATACGAGAAGGGCTTCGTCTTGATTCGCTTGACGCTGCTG | 568 |
| GAAACTGAGAATGAGCGCGTGGGCCAGAAACGGTAGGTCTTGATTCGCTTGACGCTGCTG | 586 |

Block 4
Target: TAR DNA-binding protein 43, full length, His tag (TARDBP, Homo sapiens, UniProt Q13148, residues 1-414)
Method: RNA Bind-n-Seq
Molecule type: RNA
Matrix: in vitro
Tested at: 20 nM
Setting: 6-mer, flanks averaged, single round
With: 150 mM KCl
Baseline: input library
Reading: higher = stronger binding
| Strand | 6-mer enrichment (R) |
| --- | --- |
| CGCGUA | 0.807 |
| GAUCGA | 0.832 |
| GAUGAU | 0.84 |
| AGUGGU | 1.47 |
| AAGCAU | 0.65 |
| CAGGGG | 4.3 |
| AUUCAG | 0.631 |
| UAGCAG | 0.887 |

Block 5
Target: Hepatocyte nuclear factor 3-alpha (Foxa1, Mus musculus, UniProt P35582, residues 1-468, full length assumed)
Sequence of UniProt P35582 (whole entry, looked up): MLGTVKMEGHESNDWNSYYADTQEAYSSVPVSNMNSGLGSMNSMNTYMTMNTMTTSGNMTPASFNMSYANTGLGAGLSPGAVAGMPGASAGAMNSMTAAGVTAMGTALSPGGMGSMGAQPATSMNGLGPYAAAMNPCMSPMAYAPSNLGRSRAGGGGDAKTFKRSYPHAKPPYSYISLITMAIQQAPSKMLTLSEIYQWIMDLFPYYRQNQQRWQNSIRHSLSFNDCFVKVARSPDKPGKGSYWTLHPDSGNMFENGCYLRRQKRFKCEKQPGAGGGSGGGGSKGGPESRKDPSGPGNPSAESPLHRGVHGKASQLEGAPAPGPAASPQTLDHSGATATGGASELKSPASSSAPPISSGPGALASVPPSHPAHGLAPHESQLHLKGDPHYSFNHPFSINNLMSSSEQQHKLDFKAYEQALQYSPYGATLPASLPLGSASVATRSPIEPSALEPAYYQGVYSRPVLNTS
Method: EMSA with sequencing
Molecule type: double-stranded DNA, one strand shown
Matrix: in vitro
Tested at: 10 and 20 nM
Setting: whole designed probe, mean of two concentrations, ends assumed
Baseline: negative control set to 0
Reading: higher = stronger binding
| Strand | normalised bound fraction |
| --- | --- |
| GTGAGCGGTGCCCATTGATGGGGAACTTCCTTCTGCAGCTTTCCTCCCCAAACTCCACTGGTGCTCATGTTGACTCATCTGTCATTTTCACTTCCTTTCTGGCAGAGTAGCTGAGCTGAGCAAACAACAGAGCAGGTGGACAATAGTCTGGCCTCTGCATGAAGCCACCAGTTCACAGGAAATACAGGGGGCAGAGGAACATGTTAAGTGGCACCTCAGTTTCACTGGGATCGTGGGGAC | 0.317 ratio |
| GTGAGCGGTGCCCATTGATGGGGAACAGTTCAGAATAGTATTTCTACTGAATGTGTATTGTTTTACCCATCCTAAAGTTGAAGAATCACAAGTCAAACCATCATAAGTCCAGGATTATTAGATTATATATCTTGTAGGGAAGGGAAAAGTGAAAGGAAATAATGTTCTTTCTACCCTTCTACATTATTGGCTGGAGCCCCTGTAACAAAAGACAAATTATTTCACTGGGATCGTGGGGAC | -0.022 ratio |
| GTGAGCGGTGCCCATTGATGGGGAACTAGGCTTCTCGAGTAGAGAAACAAATGACAAATGGCTAAAATGGGTCACCACACACAAATCATGGTTTCATTATAGCATATTTCAAATGTTCTAAATTGCTCACAATTCTACTACTTCCACTAGACACTAATCTTTTCCAAACAAGGCCTTTTTTGTTACTAATGAATCCCTCTTCCTTTCCCCATTGATCACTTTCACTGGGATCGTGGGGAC | -0.0304 ratio |
| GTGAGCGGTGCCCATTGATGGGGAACATACAGCCTAGAACTCCTGGGCTCAAAAGATCCTCCCACCTCAGCCTCCTGAGTAGCTAGGACTACAGAGGCGCATGCCAACATGTGTGGCAAAAATTACTAAATTATTTAGAAAAGAGGTCTCGCTTTGTTGCCCAGGCTAGTGTGCAGTGGCGCAATCTTGGCTCACTGCAACCTCTTCCTCCCAAGTTCATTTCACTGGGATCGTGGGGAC | -0.026 ratio |
| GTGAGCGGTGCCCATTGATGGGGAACTCCTCTGACAGATCAAATTATTAAATTCTGCTTGGGGAAGGTATGGGGCACTCCTCTTGGTTGAAGCAATGCTGTACTTTTTATTCCTGCTGAGTAAATAGCCTCAAGTCAAACTACTTGCCCTAACTAATGATCAAACATATCCAGGAATTCTGTACAAGAAATGCATTCTGCTCTCCTTTGAAGTGCATTGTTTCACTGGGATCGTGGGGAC | 0.224 ratio |
| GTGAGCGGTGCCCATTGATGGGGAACACCCTGTGCACCTTGTCTACGTCAGGGTGCTGTTGAAAGATTATTGAGGCCATGTCTGTAGGAAAGCCAGAGCTTCAAGAACAACAAAAACAATGTAAACAGGACTCCTTTCCTATTCTATTAATTCTATTGAAATTATTGAAAAATAATTGTCCTTGCTTTATTTTAAAATTACATGTATTGGTTTTCATCATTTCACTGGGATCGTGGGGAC | 0.197 ratio |
| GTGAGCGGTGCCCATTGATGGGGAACATCTTCCCCCTCTTCCTTGCCCCACCAGCTCACCTACGGGGGTTATTTGCAGATAGGAAAATAAATAAAGCCGGCATTCGTTAACGCAGTTCTGGCGCAAACTGCTGTTTGCTCTGCATCTAACATGGTCCTTACGCGACGCCAGGCTCCGGGAGAGCAAAGCACCGTGTCAGGCGCATGATCCGGGCTCGCCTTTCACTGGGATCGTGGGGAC | 0.355 ratio |
| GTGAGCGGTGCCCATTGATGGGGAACCTCATTCCTTGCTTCCGCCAATAATCTGACTAGTAAAGAAGTCACTGCATGCCACAAATTGTCAGTGAGTGACTCAGCAACAAGGAAGTTATTTATTTACTTATTTAATATATGAGTGTCACAGATGCAAATTCCATCTTGAGAATACCAACTCCTGATGCCAACTGATTGTCAGTCATGGCTACAACAGGAGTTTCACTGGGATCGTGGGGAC | 0.454 ratio |

Single results of other studies
| Compound | target or system | assay | test system | conditions | endpoint | result |
| --- | --- | --- | --- | --- | --- | --- |
| CN(c1ccnc(CNc2nc(Nc3ccc4c(c3)CC(=O)N4)ncc2C(F)(F)F)n1)S(C)(=O)=O | Sigma intracellular receptor 2 (TMEM97, Homo sapiens, UniProt Q5BJF2) | cell-free assay | – | 10 µM | inhibition | 60.3% |
| Cc1cc2c(C(N)=O)c(N)n(-c3c(C)ccc(O)c3C)c2nc1C | – | KINOMEscan | 403 non-mutant kinase panel | 1000 nM, percent of control below 10 | number of kinases bound | 29 |

A few entries again (block 2):
| SMILES | nuclear SOX9 intensity |
| --- | --- |
| Nc1nc(-c2nn(Cc3ccccc3F)c3ncccc23)ncc1C1CC1 | 114 % of DMSO |
| N#Cc1ccc(-c2ccc(S(=O)(=O)Nc3cccc(N)n3)cc2)cc1 | 105 % of DMSO |
| CC1C(=O)OC2C(O)C34C5CC(C(C)(C)C)C36C(OC(=O)C6O)OC4(C(=O)O5)C12O (stereo not drawn) | 103 % of DMSO |
| C1CCC(N=C(NC23CC4CC(CC(C4)C2)C3)N2CCOCC2)CC1 | 103 % of DMSO |
